Measured values collected from several papers.
Parts stem from different laboratories: compare values within a part only.

Set 1
Target: Histone acetyltransferase KAT6A, winged helix 2, GST fusion (KAT6A, Homo sapiens, UniProt Q92794, residues 85-181)
Technique: protein binding microarray
Form: double-stranded DNA, one strand shown
Matrix: in vitro
Concentration: not given
Setting: 8-mer, flanks averaged, mean of 2 arrays, mostly near background
Baseline: not given
Direction: higher = stronger binding
Target sequence (chain): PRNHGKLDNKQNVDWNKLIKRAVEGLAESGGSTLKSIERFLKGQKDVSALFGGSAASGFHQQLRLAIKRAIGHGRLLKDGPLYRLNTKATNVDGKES
Oligonucleotide | E-score
CTATACTC | -0.0163
GAGCCCGC | 0.125
CTACAAAC | -0.216
ACTGCTTC | -0.2
ACGCAAAG | -0.00138
GAACGTTC | -0.309
AGGCGCGG | 0.109
AGGAAGAA | -0.0369
TAGCCCTA | -0.14
ACCATTCG | -0.0313
GCCTCGTA | -0.0402
CTGCACAG | -0.0578
TCAGGTCA | 0.0696
CAGCGCCC | 0.17
CAGTGGAG | 0.0182
GACGATAA | -0.0296
GCCTCCAA | 0.0559
CAACGCCA | -0.0858
CCGTCCCC | -0.0197
CCGTGTGC | 0.0431
TCATGTCA | -0.0842
ACCACTCC | -0.000685
CCTGCGCA | 0.024

Set 2
Target: Ras GTPase-activating protein-binding protein 1, full length (G3BP1, Homo sapiens, UniProt Q13283)
UniProt Q13283, sequence (whole entry, looked up): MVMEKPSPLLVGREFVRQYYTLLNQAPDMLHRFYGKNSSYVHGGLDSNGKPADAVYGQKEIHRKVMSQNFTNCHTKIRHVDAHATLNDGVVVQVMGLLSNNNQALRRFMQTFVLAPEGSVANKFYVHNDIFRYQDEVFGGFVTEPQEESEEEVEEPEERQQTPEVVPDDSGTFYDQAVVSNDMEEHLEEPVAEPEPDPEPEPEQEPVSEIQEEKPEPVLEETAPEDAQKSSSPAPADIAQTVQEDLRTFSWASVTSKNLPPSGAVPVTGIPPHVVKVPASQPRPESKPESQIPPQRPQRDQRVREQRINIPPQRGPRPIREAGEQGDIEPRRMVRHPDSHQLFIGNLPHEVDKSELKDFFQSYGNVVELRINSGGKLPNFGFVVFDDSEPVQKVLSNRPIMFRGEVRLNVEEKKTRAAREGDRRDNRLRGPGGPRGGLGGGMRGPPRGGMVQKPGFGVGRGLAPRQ
Technique: RNA Bind-n-Seq
Form: RNA
Matrix: in vitro
Concentration: 200 nM
Setting: whole 134-nt RNA, ends assumed
Added: 150 mM KCl
Baseline: input library
Direction: higher = stronger binding
All sequences stand within: GGGAGUUCUACAGUCCGACGAUC … UGGAAUUCUCGGGUGUCAAGG
Oligonucleotide | log2 enrichment
UCCAGCCACUCACCGGCGAUCCAGGUCCAGAACCCCCCUGAUAAGCCGACGUAGGUCCAGAUCUCGAACUUCACCAGUCAGCCGGAGACG | 0.897
CCUCAAGUCCUGUGCUACACAUCGUAUGUACCGAAUCGGAGGAGGUUUUUGGAAAGUAUUAUGUUACGCCGUUCGGAUCUGCACUUCCAG | -0.0919
AAGUCGCGUGUCUAGGUGAGUCGCGGUGGGUCCUCGCUUGCAGUUCAGCGACCACGGUGGGUACCGUUUUUGCGAGGAUUGUUUGUCCCC | -1.56
AGUCCUGUGCUACACAUCGUAUGUACCGAAUCGGUUUUUUUGGAAAAAAAGGUUUGGAAAGUAUUAUGUUACGCCGUUCGGAUCUGCACU | -1.72
CAAGUCCUGUGCUACACAUCGUAUGUACCGAAUCGGAAAAAGGUUUUUGGAAAGGAAAGUAUUAUGUUACGCCGUUCGGAUCUGCACUUC | -1.36
AGUCACUUUUUAAUUUUAUUUAUUAUUUCUCCUCUUAGACCGCAGGAUGGAAACAAGCCCACUGAGACUAGUCAACCUCAAUCUAGCACA | 0.818
UGGACAUGGAUUUUCAAGCCUACUUAGCUUCCUCUAGUGAAGAUGAAGAGGAGAUAGAAGAGGAGCUACAAGGUAUUGUUAAUCUUUCAG | -0.775
GCAGGAAGUAAAAACAAAUGGAAAUGCUUCGAAAAGUGGCAGGGGUGGGGGUUGCUAAGGAAAGGGUGGGAUGGGAGUGGGUAAAGAGUU | 0.772
UAACUUUAGAGGAGGAUCUGAUGGAUAUGGCAGUGGACGUGGGUUUGGGGAUGGCUAUAAUGGGUAUGGAGGAGGACCUGGAGGUGGCAA | 0.559
CUCAAGUCCUGUGCUACACAUCGUAUGUACCGAAUCGGGGCGGGGCGGGCGGGAAAGUAUUAUGUUACGCCGUUCGGAUCUGCACUUCCA | 1.26
AAGUCCUGUGCUACACAUCGUAUGUACCGAAUCGGGGCCCGGGCCCGGGGCCCGGGAAAGUAUUAUGUUACGCCGUUCGGAUCUGCACUU | -1.08
CCUGUGCUACACAUCGUAUGUACCGAAUCGGGCCCCCCCGGGCCCCCCCGGCCCCCCCGGGAAAGUAUUAUGUUACGCCGUUCGGAUCUG | -0.223
CACAGACAACACGCACCCACACAGACACAGAGGGAAGGGGUUGGGAAAGGGACAGGGUGCACAGCAGGGCGGGGUAGGACCCCAGCCCCU | 1.59
ACCAUGCAGGUGAGCAUCUUUGGGAAGUGGGGCAAGGGGGGGAUAGGGAGGGGGGUAACACUUUGGGAACAGGUGGUCCCAGGUCGUUUC | 0.868

Set 3
Target: Sal-like protein 4, full length isoform A (SALL4, Homo sapiens, UniProt Q9UJQ4, residues 1-1053)
UniProt Q9UJQ4, sequence (whole entry, looked up): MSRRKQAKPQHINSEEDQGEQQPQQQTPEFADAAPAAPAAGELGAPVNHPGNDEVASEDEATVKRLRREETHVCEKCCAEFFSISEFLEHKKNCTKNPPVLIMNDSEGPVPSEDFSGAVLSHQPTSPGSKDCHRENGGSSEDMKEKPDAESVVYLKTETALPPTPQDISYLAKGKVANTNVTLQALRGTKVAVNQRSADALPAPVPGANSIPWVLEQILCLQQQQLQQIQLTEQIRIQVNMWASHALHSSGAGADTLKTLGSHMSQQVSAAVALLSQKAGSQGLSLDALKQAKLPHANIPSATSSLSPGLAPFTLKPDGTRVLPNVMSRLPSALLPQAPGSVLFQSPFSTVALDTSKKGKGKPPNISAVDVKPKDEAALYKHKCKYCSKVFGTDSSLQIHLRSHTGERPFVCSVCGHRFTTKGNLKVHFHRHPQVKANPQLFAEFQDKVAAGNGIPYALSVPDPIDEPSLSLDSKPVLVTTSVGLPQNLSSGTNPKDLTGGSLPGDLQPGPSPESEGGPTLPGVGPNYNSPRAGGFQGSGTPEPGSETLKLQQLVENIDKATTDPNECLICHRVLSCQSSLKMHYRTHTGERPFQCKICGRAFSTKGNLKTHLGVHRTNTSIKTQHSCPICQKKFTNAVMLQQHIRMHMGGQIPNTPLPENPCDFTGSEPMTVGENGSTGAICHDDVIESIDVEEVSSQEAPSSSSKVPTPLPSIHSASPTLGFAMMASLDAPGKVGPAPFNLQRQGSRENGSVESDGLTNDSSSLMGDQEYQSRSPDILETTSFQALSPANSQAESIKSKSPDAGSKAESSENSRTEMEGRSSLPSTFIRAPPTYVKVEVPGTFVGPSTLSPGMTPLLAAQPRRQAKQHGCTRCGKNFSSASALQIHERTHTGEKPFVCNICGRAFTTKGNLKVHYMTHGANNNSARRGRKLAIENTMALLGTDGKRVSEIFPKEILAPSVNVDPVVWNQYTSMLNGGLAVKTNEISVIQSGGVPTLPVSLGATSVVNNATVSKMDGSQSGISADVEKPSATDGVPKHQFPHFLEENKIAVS
Technique: universal PBM
Form: double-stranded DNA, one strand shown
Matrix: in vitro
Concentration: 600 nM
Setting: 8-mer, flanks averaged, mean of replicates
Direction: higher = stronger binding
Oligonucleotide | E-score
GCAAGGGA | -0.0682
AAGAAAGG | 0.101
GACGTTAC | -0.0043
CCGACCCA | -0.235
ACTAAGGC | -0.0629
AAATAATT | 0.431
AGAGCGTG | -0.165
CTAGGTGC | -0.248
CAACTTGC | -0.0534
GAAATCTC | -0.0291
GGTGGTTA | -0.0901
ATCCTCCG | -0.179
ACTTCACG | -0.0721
AACTATTA | 0.348
CAACGTCG | -0.215
AACTCTAG | 0.0847
ATCCAAGC | -0.216
GCCTAAGA | -0.142
CCACGTCA | -0.0444
CTATGCAC | 0.00888
CCATTCTC | -0.0311
AGAACGCC | -0.18
CCTGCCAA | -0.131
CGCCTAAC | -0.106
AACACACG | 0.0152

Set 4
Target: RNA binding protein fox-1 homolog 2, RRM domain, GST-SBP tag (RBFOX2, Homo sapiens, UniProt O43251-10, residues 100-194)
Technique: RNA Bind-n-Seq
Form: RNA
Matrix: in vitro
Concentration: 365 nM
Setting: natural RNA segment, single round, ends assumed
Baseline: no-protein control
Direction: higher = stronger binding
All sequences stand within: GGGAGUUCUACAGUCCGACGAUC … UGGAAUUCUCGGGUGCCAA
Target sequence (chain): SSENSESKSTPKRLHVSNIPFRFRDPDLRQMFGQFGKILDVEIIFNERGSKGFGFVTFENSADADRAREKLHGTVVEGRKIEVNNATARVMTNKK
Oligonucleotide | RBNS enrichment (R)
GAGAAAUCCCAGGCCAGAACAGCUGGAGCUCUUAUGUAGCACACAAGGCUCGAACCAGCACCGAAUCAGCCCCUCUGCCCGCCCCACUCUACUGUGACUUUGAUUCAAGG | 0.271
CCCCAAGAUCUCCAGUUUUAGAAGAGACCUGCACAUAAGAGGACUUCAUGUCAAGAUCACUACAACACCAUCUCUUCCAUUCACAAAGUUGAGUCUGUUCCUUUCAUCUA | 0.361
CAGACCUUGACCAAAGAUGCUGAAAUACAGUGUUGGGAUCCUUGUACUCUGGAACCAUGCCAUCACUGAUGUCAUGCUCAUGCUACCUAGCAUGCAGGAGGAUGCCAUCU | 0.862
CUGGUGGGCUGAGGGAAGGUUUGUAGCUGCGUUUAGUGGUAUACAUCUUUAGUCCCAGCAUAGGCAGGUGAAUCUCGAGUUUGAAGCUAGCCUGGUCUAAAAAGGAAGUU | 0.413
AAAAAAAGAGUUGAGUGAAUCUGUUUACAUUUAGAAUAAUGUUUUUUUCUUCAAGAGACGCAAUUGCAAUAGUAUUUUUUAGAUUUUAUCCAAGAAGUUUUUUGGGCGAA | 0.466
GUAGGAACAGCAUUUCUUACAACCGCCCCAGGACCUGAUUUGGCAAGACUGACUAGCUCUCUUUAGCCCUCUGGUGAUUCCUUCACUAUCAUGUCAACCUGGCUUAUCAU | 0.294
GAAAUAAGUGACCCAACAAAAUUUAUUCAUCUGUUAUGGGUAAGAUCUGCCAUAAAUUCUUCCUAAAUAAUUUGUUUACUAACUCUUUAGGCCACUGUGCUUUGCGGUCC | 0.557
UCCUUGAUGUCCCGUUCUCUUCCACAGCCCUGAGGUCUUACGAAUUUUUCUACUUUCUUUUUGCUGUUGAUGAAUUGUUUCAUUAUUAAAUAUAUGCAUGUAUCAAAGCU | 17.6
CCAUCACACCUCGGCGGCCUUUAUUUAUUCUGUUCCCCCAGCUCGGCCACUUCUCUGAAGGAGGGCUGGGUUCUGGGCCUGUAUCGAAUAAACACAAACCUGGAUGGCGC | 0.245
UGCAAAUUAAAUGCCCUUAAAUUUCACCAUUUGUCUUUCAUUUUAAAGGUUAUUUGCUCCCGAUUAUAUGAUUCAAGUGUUAUAAGUUUUAGCUUGAACUACUUUGCAGU | 0.87
UCCUCUGACUUGGUUUGUAAGUAACCUGUAAUAAAAUGGCAUAUGCACUUUAACCAGCCCUGUGAUCCGUACGAGUGUAGCAGCAAGAGGACUCUGUUGACAGGCACGUU | 4.89
AUAGCAAAACAAGUGCAGUGUAUUAAAGCUAAACACUACAUUGAAACGCAAACAAAAUUCUGGUGAAAUAACUGGGCUGUUGAUGCAGGUCAGGUGGAAGCUGAGAAAUA | 0.463

Set 5
Target: Interferon regulatory factor 7, full length, phosphomimetic (IRF7, Homo sapiens, UniProt Q92985, residues 1-503, S101K/S471D/S472D/S475D/S476D/S477D/S483D/S484D/S487D)
Technique: protein-binding microarray
Form: double-stranded DNA, one strand shown
Matrix: in vitro
Concentration: 250 nM
Setting: 60-bp whole probe
Added: salmon DNA 0.4 mg/ml
Baseline: random background probes
Direction: higher = stronger binding
All sequences stand within: GCCTAGCAC … GTCTTGATTCGCTTGACGCTGCTG
Target sequence (chain): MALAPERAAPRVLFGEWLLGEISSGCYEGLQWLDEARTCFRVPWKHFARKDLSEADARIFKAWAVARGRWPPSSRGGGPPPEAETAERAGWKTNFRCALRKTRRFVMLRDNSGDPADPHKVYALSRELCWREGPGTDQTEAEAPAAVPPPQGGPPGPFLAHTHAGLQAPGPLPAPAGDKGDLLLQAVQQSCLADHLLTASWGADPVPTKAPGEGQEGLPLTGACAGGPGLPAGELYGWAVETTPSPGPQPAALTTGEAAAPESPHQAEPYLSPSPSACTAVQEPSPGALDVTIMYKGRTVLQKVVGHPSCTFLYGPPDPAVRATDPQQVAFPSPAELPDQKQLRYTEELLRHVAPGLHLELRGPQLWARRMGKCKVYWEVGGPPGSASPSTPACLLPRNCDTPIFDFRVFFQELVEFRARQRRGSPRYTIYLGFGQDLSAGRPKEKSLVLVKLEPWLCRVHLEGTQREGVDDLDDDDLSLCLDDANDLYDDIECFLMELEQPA
Oligonucleotide | log fluorescence [z-score]
TTAGTTATCCTACTGCTTTAGTGCTAG | 0.686
TTAGATTCCATTTTCGATTAGTGCTAG | 6.27
GACGATTTCGGGAGTGGAGACGTGCTA | -0.211
TTAGATTTCGGGACTGCATTAGTGCTA | 0.657
ACATCCAAATCCACCATTCAGTGCTAG | 0.59
GACGGTATCGGTATCGGCACGTGCTAG | 1.03
TGGCCTATTTATATGAGATGGTGCTAG | 0.573
TTAGATTTCAGTTCCCATTAGTGCTAG | 1.61
TTGGATATCGGGTATCGATTAGTGCTA | 0.426
TTAGATATCGGGTTTCGATTAGTGCTA | 7.06
TCACATGTGGGTTCCATACTGTGCTAG | 0.159
ATATATTTATGTATACACACGTGCTAG | 0.625
GAAAGGTACCATGGTGGCTCGTGCTAG | 0.187
TTAGGACTGGGCTATCGGTTAGTGCTA | -0.297
AGTTCTCTAGAAATTCCCACGGTGCTA | 0.746
TTCCAACTCTGTTTTCGCTTGTGCTAG | 1.35
TGTTTTTGCTTTCTTTTTGCGTGCTAG | 3.67
TTAGATTCCGGGTATCGATTAGTGCTA | 2.04
GACGGTTTCGGACTTGGGACGTGCTAG | 3.46
GACGAACTGGGGACTGGAGACGTGCTA | -0.503
TCATGTATATATGTGTAACTGTGCTAG | -0.0184
GACGGTTTCGGGTATCGGTACGTGCTA | 7.48

A few entries again (set 1):
Oligonucleotide | E-score
AGGCGCGG | 0.109
AGGAAGAA | -0.0369
TAGCCCTA | -0.14
ACCATTCG | -0.0313
GCCTCGTA | -0.0402
